Earlier results, collected from citations in different studies.
± marks the error that the study gave.
Chain of UniProt Q96GD4 (whole entry, looked up): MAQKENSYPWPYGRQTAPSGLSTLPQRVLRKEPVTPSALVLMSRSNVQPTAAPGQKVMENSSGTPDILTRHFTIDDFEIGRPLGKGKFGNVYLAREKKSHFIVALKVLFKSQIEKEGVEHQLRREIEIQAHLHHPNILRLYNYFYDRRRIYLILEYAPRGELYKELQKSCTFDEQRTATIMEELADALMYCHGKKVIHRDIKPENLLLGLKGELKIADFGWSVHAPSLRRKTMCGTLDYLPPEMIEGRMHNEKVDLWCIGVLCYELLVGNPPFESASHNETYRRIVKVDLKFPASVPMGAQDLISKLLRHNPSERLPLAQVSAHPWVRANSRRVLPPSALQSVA

Compound | target or system | test | system | setting | scale | measurement | value
CC(C)=CCC/C(C)=C/CNCCNC1C2CC3CC(C2)CC1C3 (stereo not drawn) | Staphylococcus aureus farnesyl diphosphate synthase | enzyme activity, inhibitor | – | – | – | IC50 | ≥ 50000 nM
CC(C)(C)c1ccc(Nc2ncnc3sc(Nc4c(Cl)cccc4Cl)nc23)cc1 | TRPV1 | calcium flux, antagonist | HEK293 | with: capsaicin | – | IC50 | 11 nM
CCN(CC)CCCCNc1ncc2cc(-c3cc(OC)cc(OC)c3)c(NC(=O)NC(C)(C)C)nc2n1 | PDGFRα | inhibitor | – | – | – | IC50 | > 1000 nM
NC(=O)N1c2ccccc2CC(=O)c2ccccc21 | sodium channel | binding | – | with: [3H]batrachotoxin | – | IC50 | 160000 nM
CCCCCCCC/C=C\CCCCCCCC(=O)NCCO | acid ceramidase | enzyme activity, radiometric | HL-60 | – | – | IC50 | > 500000 nM
Nc1cc(C(F)(F)F)c(-c2nc(N3CCOCC3)nc(N3CCOCC3)n2)cn1 | Aurora kinase B (AURKB, Homo sapiens, UniProt Q96GD4) | enzyme activity | – | 10 µM | reference: untreated | remaining activity | 81%
COc1ccnc2[nH]cc(-c3ccnc(N)n3)c12 | CDK2 | – | – | – | – | IC50 | 11 nM
CC(C)(C)c1ccc(NC(=O)c2ccc(-c3ncccc3Cl)cc2)cc1 | TRPV1 | calcium flux, antagonist | HEK293 | with: capsaicin | – | IC50 | 8 nM
CO[C@@H]1COCC[C@@H]1N[C@@H]1C[C@H]2CCC[C@@]2(C(=O)N2C[C@@H]3C[C@H]2CN3c2ccc(C#N)c(C(F)(F)F)c2)C1 | CCR2 | – | – | 3D-QSAR training set | – | IC50 | 55.3 nM
COc1ccc(CC2c3ccc(OC)cc3CCC2NC(=O)Nc2cccc3cnccc23)cc1 (stereo not drawn) | TRPV1 | calcium flux, antagonist | HEK293 | with: capsaicin | – | IC50 | 36 nM
CN(C)C(=O)CCc1nc(-c2ccccc2)c(-c2ccccc2)o1 | NR4A3 (NOR-1) | inverse agonist, cellular | – | – | – | IC50 | 39000 ± 5000 nM
COc1ccc(CC(=O)NC(NC(=NC#N)Nc2cccc3ncccc23)C(C)(C)C)cc1OC (stereo not drawn) | P2X7 (mouse) | – | – | – | – | IC50 | 676 nM
CO[C@H]1/C=C/O[C@@]2(C)Oc3c(C)c(O)c4c(O)c(c(/C=N/N5CCN(C)CC5)c(O)c4c3C2=O)NC(=O)/C(C)=C\C=C\[C@H](C)[C@H](O)[C@@H](C)[C@@H](O)[C@@H](C)[C@H](OC(C)=O)[C@@H]1C | NTCP | inhibitor | – | – | – | IC50 | 277000 nM
O=C(O)c1cc(N2N=C(C(F)(F)F)/C(=C/c3ccc(-c4ccccc4)o3)C2=O)ccc1Cl | ERO1α | inhibitor | – | – | – | IC50 | 1900 nM
CN(CCCNC(=O)CNc1cccc2c1C(=O)N(C1CCC(=O)NC1=O)C2=O)CCCC(=O)N1CCC[C@@H](n2nc(-c3ccc(Oc4ccccc4)cc3)c3c(N)ncnc32)C1 (stereo partly drawn) | BTK | target engagement, NanoBRET | HEK-293T expressing BTK-NanoLuc | 2 h, with: tracer 1 µM | – | IC50 | 1270 nM
O=C(Nc1ccc2c(c1)NC(=O)C(CCO)O2)C1CCN(c2cc(F)c(F)c(F)c2)CC1 (stereo not drawn) | TRPV1 | calcium flux, antagonist | HEK293 | with: capsaicin | – | IC50 | 5 nM
CN(C)CCCC1(c2ccc(F)cc2)OCc2cc(C#N)ccc21 (stereo not drawn) | sigma-2 receptor | – | – | literature value | – | IC50 | 5000 nM
N[C@@H](CCC(=O)O)C(=O)O | kainate glutamate receptor | radioligand binding | – | – | – | IC50 | 240 nM
CC1(C)S[C@@H]2[C@H](NC(=O)[C@H](N)c3ccccc3)C(=O)N2[C@H]1C(=O)O | Enterobacter cloacae | – | clinical isolate RKI-No_136/15 | – | – | MIC | > 16 µg/mL
CCCCCCCCCCOC(=O)/C=C/c1ccc(O)c(O)c1 | xanthine oxidase | inhibitor | – | – | – | IC50 | 10000 ± 1000 nM
COc1ccc(-c2ccc3ncc4c(c3c2)n(-c2ccc(N3CCNCC3)c(C(F)(F)F)c2)c(=O)n4C)cn1 | PI3K alpha | – | – | – | – | IC50 | 4 nM
O=C(CCc1ccc(Cl)c(Cl)c1)Nc1cccc2ccc(O)cc12 | TRPV1 | calcium flux, antagonist | HEK293 | with: capsaicin | – | IC50 | 17 nM
CC(=O)N1CCc2c(c(N3CCCc4cc(-c5cnn(C)c5)c(C(F)F)cc43)nn2C2CCOCC2)C1 | mTOR | – | – | – | – | IC50 | 280 nM
Cc1nc(Nc2ccc(C(F)(F)F)c(Cl)c2)c2nc(Nc3c(Cl)cccc3Cl)sc2n1 | TRPV1 | calcium flux, antagonist | HEK293 | with: capsaicin | – | IC50 | 3 nM
CC(C)c1cc(C(=O)N2Cc3ccc(CN4CCN(C)CC4)cc3C2)c(O)cc1O | Hsp90 | inhibitor | – | – | – | IC50 | 18 nM
FC(F)(F)c1ccc(Nc2nc(N3CCN(C4CC4)CC3)nc3c2CCN(c2ncccc2C(F)(F)F)CC3)cc1 | TRPV1 | calcium flux, antagonist | HEK293 | with: capsaicin | – | IC50 | 11 nM
CC(C)(O/N=C(\C(=O)N[C@@H]1C(=O)N2C(C(=O)[O-])=C(C[n+]3ccccc3)CS[C@H]12)c1csc(N)n1)C(=O)O | Escherichia coli | – | clinical isolate RKI-No_602/16 | – | – | MIC | ≤ 2 µg/mL

Excerpt of the above:
Compound | target or system | test | system | setting | scale | measurement | value
CC1(C)S[C@@H]2[C@H](NC(=O)[C@H](N)c3ccccc3)C(=O)N2[C@H]1C(=O)O | Enterobacter cloacae | – | clinical isolate RKI-No_136/15 | – | – | MIC | > 16 µg/mL
CCCCCCCCCCOC(=O)/C=C/c1ccc(O)c(O)c1 | xanthine oxidase | inhibitor | – | – | – | IC50 | 10000 ± 1000 nM
COc1ccc(-c2ccc3ncc4c(c3c2)n(-c2ccc(N3CCNCC3)c(C(F)(F)F)c2)c(=O)n4C)cn1 | PI3K alpha | – | – | – | – | IC50 | 4 nM
